Experimental data collected from several papers.
Values joined by “and” are separate records of one study, mostly repeats; a detail may differ.
Cell line: EKVX

| Structure (SMILES) | assay | setting | scale | quantity | result |
| --- | --- | --- | --- | --- | --- |
| O=c1ccn(Cc2cn(-c3c4ccccc4nc4ccccc34)nn2)c(=O)[nH]1 | NCI60 single-dose screen | 10 µM |  | growth percentage | 103% |
| S=C([S][Au-][P+](CCCCCC[P+]([Au-][S]C(=S)n1cccn1)(c1ccccc1)c1ccccc1)(c1ccccc1)c1ccccc1)n1cccn1 | cell growth, NCI-60 screen | non-small cell lung cancer |  | log10 TGI | > -4 |
| O=C(Nc1nnc2n3c(nc(-c4ccc(Cl)cc4)c1-2)SCC3=O)c1ccccc1 | SRB | 10 µM, NCI60 single-dose screen | relative to: untreated | cell growth | 89% |
| Cc1cc(=O)[nH]c(=O)n1Cc1cn(-c2cc3ccccc3oc2=O)nn1 | NCI60 single-dose screen | 10 µM |  | growth percentage | 98.5% |
| CCCCCCCCCCCCCCCCCCOCC(COP(=O)([O-])OCC[N+](C)(C)C)OC (stereo not shown) | SRB | 10 µM |  | growth inhibition | < 0% |
| CN1CCN(c2ccc3[nH]c(-c4ccc5[nH]c(-c6ccc(C(F)(F)F)cc6)nc5c4)nc3c2)CC1 | SRB | 10 µM, 48 h |  | growth percent | 81.6% |
| Cc1cc(-c2ccccc2)n(-c2nc(-c3ccc(Cl)cc3)c3c(NC(=O)c4ccccc4)nnc-3[nH]2)n1 | SRB | 10 µM, NCI60 single-dose screen | relative to: untreated | cell growth | 95.3% |
| CCCN1CCN(c2ccc3[nH]c(-c4ccc5[nH]c(-c6ccc(C(F)(F)F)cc6)nc5c4)nc3c2)CC1 | SRB | 10 µM, 48 h |  | growth percent | -34.3% |
| CSc1nc(-c2ccc(Cl)cc2)c2c(NC(=O)c3ccccc3)nnc-2[nH]1 | SRB | 10 µM, NCI60 single-dose screen | relative to: untreated | cell growth | 93.3% |
| CCCCCCCCCCCCCCCCCCOc1cccc(CC(=O)OCC[N+]2(C)CCOCC2)c1 | SRB | 10 µM |  | growth inhibition | < 0% |
| CCCN1CCN(c2ccc3nc(-c4ccc5nc(-c6cc(OC)ccc6OC)[nH]c5c4)[nH]c3c2)CC1 | SRB | 10 µM, 48 h |  | growth percent | 96.7% |
| O=C(Nc1nnc2n3c(Cc4ccccc4)n[nH]c3nc(-c3ccc(Cl)cc3)c1-2)c1ccccc1 | SRB | 10 µM, NCI60 single-dose screen | relative to: untreated | cell growth | 95% |
| C#C[C@@]1(O)[C@@H](CO)O[C@@H](n2cc(I)c3c(N)ncnc32)[C@@H]1O | SRB | NCI-60 screen |  | TGI | 4.04 µM and 7.14 µM |
| CCCCN1CCN(c2ccc3[nH]c(-c4ccc5[nH]c(-c6ccc(OCC)c(OCC)c6)nc5c4)nc3c2)CC1 | SRB | 10 µM, 48 h |  | growth percent | 24.6% |
| CCCCCCCCCCCCCCCCCCOc1ccc(CC(=O)OCC[N+]2(C)CCCC2)cc1 | SRB | 10 µM |  | growth inhibition | < 0% |
| CCOc1ccc(-c2nc3cc(-c4nc5cc(N6CCN(C)CC6)ccc5[nH]4)ccc3[nH]2)cc1OCC | SRB | 10 µM, 48 h |  | growth percent | 50.2% |
| C#C[C@@]1(O)[C@@H](CO)O[C@@H](n2cc(Cl)c3c(N)ncnc32)[C@@H]1O | SRB | NCI-60 screen |  | TGI | 2.46 µM and 2.41 µM |
| O=C1NC(c2ccccc2)(c2ccccc2)C(=O)N1Cc1cn(-c2cc3ccccc3oc2=O)nn1 | NCI60 single-dose screen | 10 µM |  | growth percentage | 78.9% |
| Cc1cc(C)n(-c2nc(-c3ccc(Cl)cc3)c3c(NC(=O)c4ccccc4)nnc-3[nH]2)n1 | SRB | 10 µM, NCI60 single-dose screen | relative to: untreated | cell growth | 93.9% |
| O=C1NC(c2ccccc2)(c2ccccc2)C(=O)N1Cc1cn(-c2c3ccccc3nc3ccccc23)nn1 | NCI60 single-dose screen | 10 µM |  | growth percentage | 80.4% |
| CCCCN1CCN(c2ccc3nc(-c4ccc5nc(-c6cc(OC)ccc6OC)[nH]c5c4)[nH]c3c2)CC1 | SRB | 10 µM, 48 h |  | growth percent | 97% |
| Cn1cncc1C1=CN(c2ncnc3[nH]cnc23)CCS1 |  | lung cancer |  | TGI | 126 µM |

A few entries again:
| Structure (SMILES) | assay | setting | scale | quantity | result |
| --- | --- | --- | --- | --- | --- |
| CCCCN1CCN(c2ccc3nc(-c4ccc5nc(-c6cc(OC)ccc6OC)[nH]c5c4)[nH]c3c2)CC1 | SRB | 10 µM, 48 h |  | growth percent | 97% |
| Cn1cncc1C1=CN(c2ncnc3[nH]cnc23)CCS1 |  | lung cancer |  | TGI | 126 µM |
